Published values gathered from unrelated publications.
Compare with care: the assays were run in different laboratories. ± marks the error that the study gave.

With C=CCCC[C@](C)(N)C(=O)N[C@@H](C)C(=O)N[C@@H](Cc1ccc(O)cc1)C(=O)N[C@@H](Cc1ccccc1)C(=O)N[C@@](C)(CCCC=C)C(=O)N[C@@H](CC(C)C)C(=O)N[C@@H](CCCCN)C(=O)N[C@@H](CC(C)C)C(=O)N[C@@H](C)C(=O)NCC(=O)N[C@@H](CCCNC(=N)N)C(=O)N[C@@H](Cc1c[nH]c2ccccc12)C(N)=O the EC50 was 5000 nM (HIV-1).
CCCCCCCCCCCCCCCC(=O)N[C@@H](CCC(=O)NCCOCCOCCC(=O)NCCOCCOCCC(=O)NCCCC[C@H](NC(=O)[C@H](CC(=O)O)NC(=O)[C@H](CC(C)C)NC(=O)[C@H](Cc1ccc(O)cc1)NC(=O)[C@H](CCCCN)NC(=O)[C@H](CO)NC(=O)[C@H](Cc1ccc(O)cc1)NC(=O)[C@H](CC(=O)O)NC(=O)[C@H](CO)NC(=O)[C@@H](NC(=O)[C@H](Cc1ccccc1)NC(=O)[C@@H](NC(=O)CNC(=O)[C@H](CCC(N)=O)NC(=O)[C@@H](CO)NC(=O)[C@@H](N)Cc1c[nH]cn1)[C@@H](C)O)[C@@H](C)O)C(=O)N[C@@H](CCCNC(=N)N)C(=O)N[C@@H](CCCNC(=N)N)C(=O)N[C@@H](C)C(=O)N[C@@H](CCC(N)=O)C(=O)N[C@@H](CC(=O)O)C(=O)N[C@@H](Cc1ccccc1)C(=O)N[C@H](C(=O)N[C@@H](CCC(N)=O)C(=O)N[C@@H](Cc1c[nH]c2ccccc12)C(=O)N[C@@H](CC(C)C)C(=O)N[C@@H](CC(C)C)C(=O)N[C@@H](CC(N)=O)C(=O)N[C@H](C(=O)NCC(=O)NCC(=O)N1CCC[C@H]1C(=O)N[C@@H](CO)C(=O)N[C@@H](CO)C(=O)NCC(=O)N[C@@H](C)C(=O)N1CCC[C@H]1C(=O)N1CCC[C@H]1C(=O)N1CCC[C@H]1C(=O)N[C@@H](CO)C(N)=O)[C@@H](C)O)C(C)C)C(=O)O has a Cmax of 590 ng/mL (rhesus monkey, male, plasma; subcutaneous, 300 µg/kg, day 28, toxicokinetics, mean).
With CC(C)n1ccn2cc(C(=O)NCc3ccc(F)cc3F)c(=O)c(O)c2c1=O the EC50 was 147 ± 15.4 nM (HIV-1; viral replication, single-round vector infection; IN E138A/G140S/Q148H).
Cc1cccc(-c2cc(C#N)cc(Oc3c(C(F)(F)F)ccn(Cc4n[nH]c(=O)n4C)c3=O)c2)c1 has an EC50 of 760 ± 130 nM (HIV-1; viral cytopathicity; MT4, Y188L mutant).
With N#Cc1ccc(Nc2nccc(C(=O)c3c(F)cc(F)cc3F)n2)cc1 the EC50 was 6880 nM (HIV-1; viral replication; MT4, RT K103N mutant).
For Cc1cc(/C=C/C#N)cc(C)c1-n1cnc2cnc(Nc3ccc(C#N)cc3)nc21, the EC50 was 0.7 ± 0.3 nM (HIV-1; viral replication, single-round infection; RT mutant V106A/F227L/L234I).
With O=C(NCc1ccc(F)cc1F)c1cc2cccnc2n(O)c1=O the EC50 was 4.9 ± 0.8 nM (HIV-1; viral replication; infected cells, integrase Y143R mutant).
COc1cc(F)c(C(=O)c2ccnc(Nc3ccc(C#N)cc3)n2)c(F)c1 has an EC50 of 347 nM (HIV-1; viral replication; MT4, RT K103N mutant).
O=C(NCc1ccc(F)cc1F)c1c(O)c2cccnc2n(O)c1=O has an EC50 of 308 ± 125 nM (HIV-1; viral replication; infected cells, integrase G140S/Q148H mutant).
For Cc1cc(C)cc(S(=O)(=O)c2c(C(N)=O)[nH]c3ccc(Cl)cc23)c1, the EC50 was 1800 ± 290 nM (HIV-1; viral replication; MT-4, K103N/Y181C mutant (RES056)).
Cc1cc(/C=C/C#N)cc(C)c1Nc1nc(Nc2ccc(C#N)cc2)ncc1N gave an EC50 of 1.4 ± 0.4 nM (HIV-1; viral replication, single-round infection; RT mutant V106A/G190A/F227L).
With CC(C)N1CCn2cc(C(=O)NCc3ccc(F)cc3F)c(=O)c(O)c2C1=O the EC50 was 103 ± 12.4 nM (HIV-1; viral replication, single-round vector infection; IN T97A/G140S/Q148H).
Cc1cc(C)cc(S(=O)(=O)c2c(C(=O)NC3CC4(C3)CN(Cc3n[nH]c(=O)[nH]3)C4)[nH]c3ccc(Cl)cc23)c1 gave an EC50 of 250 ± 18 nM (HIV-1; viral replication; MT-4, Y181C mutant).

For quick reference, copied from above:
With C=CCCC[C@](C)(N)C(=O)N[C@@H](C)C(=O)N[C@@H](Cc1ccc(O)cc1)C(=O)N[C@@H](Cc1ccccc1)C(=O)N[C@@](C)(CCCC=C)C(=O)N[C@@H](CC(C)C)C(=O)N[C@@H](CCCCN)C(=O)N[C@@H](CC(C)C)C(=O)N[C@@H](C)C(=O)NCC(=O)N[C@@H](CCCNC(=N)N)C(=O)N[C@@H](Cc1c[nH]c2ccccc12)C(N)=O the EC50 was 5000 nM (HIV-1).
